Measurements collected from several papers.
Numbers after ± are the reported error.
Chain of UniProt P08684 (whole entry, looked up): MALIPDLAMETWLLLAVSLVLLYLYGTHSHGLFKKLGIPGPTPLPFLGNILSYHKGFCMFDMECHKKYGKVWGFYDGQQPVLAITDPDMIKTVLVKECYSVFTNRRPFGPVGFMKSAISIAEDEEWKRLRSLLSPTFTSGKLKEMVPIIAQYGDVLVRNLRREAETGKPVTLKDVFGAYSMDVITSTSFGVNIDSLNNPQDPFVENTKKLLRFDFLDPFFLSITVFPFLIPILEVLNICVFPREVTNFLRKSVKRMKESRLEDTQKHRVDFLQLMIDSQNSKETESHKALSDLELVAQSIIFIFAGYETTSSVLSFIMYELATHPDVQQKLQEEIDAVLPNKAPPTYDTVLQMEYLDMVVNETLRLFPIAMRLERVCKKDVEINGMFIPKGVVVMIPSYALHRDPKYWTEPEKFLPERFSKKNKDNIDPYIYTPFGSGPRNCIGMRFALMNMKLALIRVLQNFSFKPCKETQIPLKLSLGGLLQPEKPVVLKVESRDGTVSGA
Chain of UniProt P08183 (whole entry, looked up): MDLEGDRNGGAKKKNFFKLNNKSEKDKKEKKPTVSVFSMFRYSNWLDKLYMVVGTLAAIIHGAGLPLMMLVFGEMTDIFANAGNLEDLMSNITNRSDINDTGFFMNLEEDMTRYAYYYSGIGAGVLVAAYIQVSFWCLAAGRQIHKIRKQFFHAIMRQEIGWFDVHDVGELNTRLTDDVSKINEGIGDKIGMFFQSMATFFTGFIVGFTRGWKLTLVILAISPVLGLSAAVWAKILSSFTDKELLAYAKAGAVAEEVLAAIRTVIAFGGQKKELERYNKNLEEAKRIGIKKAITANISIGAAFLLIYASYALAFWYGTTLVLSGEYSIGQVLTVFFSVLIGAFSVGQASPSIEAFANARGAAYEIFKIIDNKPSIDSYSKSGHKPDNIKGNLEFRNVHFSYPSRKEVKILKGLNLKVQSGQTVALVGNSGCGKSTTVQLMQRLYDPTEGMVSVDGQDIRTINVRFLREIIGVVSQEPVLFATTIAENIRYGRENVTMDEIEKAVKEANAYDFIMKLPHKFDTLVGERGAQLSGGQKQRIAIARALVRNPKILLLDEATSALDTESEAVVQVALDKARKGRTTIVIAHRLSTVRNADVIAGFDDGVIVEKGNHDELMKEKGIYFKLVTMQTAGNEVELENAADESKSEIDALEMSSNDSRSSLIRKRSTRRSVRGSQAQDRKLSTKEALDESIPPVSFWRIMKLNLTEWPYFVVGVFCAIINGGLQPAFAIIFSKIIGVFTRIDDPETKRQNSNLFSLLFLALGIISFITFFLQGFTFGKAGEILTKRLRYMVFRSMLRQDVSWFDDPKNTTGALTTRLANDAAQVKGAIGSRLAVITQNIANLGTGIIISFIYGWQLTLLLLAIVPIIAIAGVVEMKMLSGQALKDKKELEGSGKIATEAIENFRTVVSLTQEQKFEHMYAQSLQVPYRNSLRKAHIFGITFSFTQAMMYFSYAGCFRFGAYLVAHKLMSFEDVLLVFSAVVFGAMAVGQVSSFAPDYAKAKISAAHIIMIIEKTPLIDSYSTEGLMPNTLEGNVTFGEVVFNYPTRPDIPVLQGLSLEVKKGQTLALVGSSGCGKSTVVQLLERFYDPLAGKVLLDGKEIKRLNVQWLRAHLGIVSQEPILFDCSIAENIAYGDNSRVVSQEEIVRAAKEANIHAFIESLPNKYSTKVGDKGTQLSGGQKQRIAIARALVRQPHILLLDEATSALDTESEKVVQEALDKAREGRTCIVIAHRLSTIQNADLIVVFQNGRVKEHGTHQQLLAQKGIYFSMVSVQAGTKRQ
Chain of UniProt P10632 (whole entry, looked up): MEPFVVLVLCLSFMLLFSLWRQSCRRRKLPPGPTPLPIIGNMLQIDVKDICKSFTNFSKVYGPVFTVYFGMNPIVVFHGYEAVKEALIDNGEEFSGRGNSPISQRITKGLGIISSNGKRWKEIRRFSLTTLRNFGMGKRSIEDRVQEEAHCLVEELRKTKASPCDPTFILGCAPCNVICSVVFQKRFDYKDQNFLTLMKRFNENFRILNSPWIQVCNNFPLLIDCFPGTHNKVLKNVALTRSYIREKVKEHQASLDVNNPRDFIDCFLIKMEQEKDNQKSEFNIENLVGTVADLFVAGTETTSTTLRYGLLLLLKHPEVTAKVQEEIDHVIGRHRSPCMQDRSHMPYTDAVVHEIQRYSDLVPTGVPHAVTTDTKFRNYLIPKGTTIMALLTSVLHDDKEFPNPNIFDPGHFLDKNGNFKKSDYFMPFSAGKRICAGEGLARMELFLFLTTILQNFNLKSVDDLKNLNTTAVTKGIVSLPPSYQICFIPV

With `COC(=O)[C@H]1[C@H]2C[C@@H]3c4[nH]c5cc(OC)ccc5c4CCN3C[C@H]2C[C@@H](OC(=O)/C=C/c2cc(OC)c(OC)c(OC)c2)[C@@H]1OC` the CC50 was 5.5 µM (African green monkey cells; 5 days).
`COc1cc2c(Oc3ccc4[nH]c(C)cc4c3F)ccnc2cc1OCC1(N)CC1` — result for “grade 1 or 2 sinus arrhythmia”: 0% (paediatric recurrent refractory sarcoma; 8 mg).
With `CN1CC[C@]23c4c5ccc(O[C@@H]6O[C@H](C(=O)O)[C@@H](O)[C@H](O)[C@H]6O)c4O[C@H]2[C@@H](O)C=C[C@H]3[C@H]1C5` the stability bias was -8.91% (rat whole blood; 500 nM, 4 freeze-thaw cycles).
Under “subjects with any TEAE”, `C[C@]1(CO)Cc2ncn(-c3ccc(C#N)c(Cl)c3)c2C(=O)O1` is recorded as 16.7% (human; 2 mg single dose).
For `CNCC[C@H](Oc1cccc2ccccc12)c1cccs1`, the CC50 was 17.8 µM (African green monkey cells; 5 days).
For `O=c1ccc2ccccc2o1`, the response probability was 31.8% (HepaRG 3D spheroids; steatosis; concentration not given, 168 h, high-content imaging).
For `CCC(C)n1ncn(-c2ccc(N3CCN(c4ccc(OC[C@H]5CO[C@](Cn6cncn6)(c6ccc(F)cc6F)O5)cc4)CC3)cc2)c1=O` (some centres unmarked), the CC50 was > 100 µM (African green monkey cells; 5 days).
Under “patients with adverse event”, `CN1CC[C@@H](c2c(O)cc(O)c3c(=O)cc(-c4ccc(C(F)(F)F)cc4Cl)oc23)[C@@H]1CO` is recorded as 20% (item: Constipation; AML; oral, 200 mg, intermittent dosing).
For `CCCCCCCCc1ccc(CCC(N)(CO)CO)cc1`, the inhibition was 53% (ABCB1 (Homo sapiens, UniProt P08183); transport, inhibitor; 100 µM, 5 (unit not given), pH 7, with: NMN).
The revertant ratio of `Cc1cc(C(=O)NC(C)(C)COc2cccc3c2C(N)=NS(=O)(=O)N3)cc(C)n1` is reported as 0.9 (Salmonella typhimurium; Ames test, confirmatory; TA1537; 100 µg/plate, with: rat liver S9; reference: solvent control).
With `COc1ccc2c(c1)CCC(c1ccccc1)=C2c1ccc(OCCN2CCCC2)cc1` the CC50 was 3.85 µM (African green monkey cells; 5 days).
With `COC(=O)[C@H]1[C@@H](OC(=O)c2ccccc2)C[C@@H]2CC[C@H]1N2C` the stability bias was -3.71% (rat whole blood; 500 nM, 4 freeze-thaw cycles).
The Phosphorus of `CCc1ccc(CC/C=C/c2ccc3c(c2)C(=O)CC3)cc1` is reported as 2.43 mM (Sprague-Dawley rat, female; oral, 30 mg/kg/day, 14 days).
For `CCCCCCC(C)(C)c1cc(O)c2c(c1)OC(C)(C)C1CCC(=O)CC21` (centres unmarked), the CC50 was 11.1 µM (African green monkey cells; 5 days).
Under “revertant colonies per plate”, `COc1cccc(-c2n[nH]c(SCc3ccccn3)n2)c1OC` is recorded as 5 (Salmonella typhimurium; preincubation Ames test; TA98; 2.0 mg per plate).
`Cc1ncc2n1-c1ccc(Cl)cc1C(c1ccccc1F)=NC2` gave an AUC(0-t) of 19.7 ng·h/mL (Cytochrome P450 3A4 (CYP3A4, Homo sapiens, UniProt P08684); human, plasma; oral, 2 mg, day 1, alone, geometric mean).
`CN1[C@H]2CC[C@@H]1[C@@H](C(=O)O)[C@@H](OC(=O)c1ccccc1)C2` has a stability bias of 7.45% (rat whole blood; 500 nM, 4 h, room temperature).
`O=C1c2c(O)c(=O)ccn2N([C@@H]2c3ccccc3SCc3c2ccc(F)c3F)[C@@H]2COCCN12` gave a Cmax of 17.4 ng/mL (BALB/c mouse; subcutaneous, 0.25 mg/kg q24h).
With `O=C1CC2(CCCC2)CC(=O)N1CCCCN1CCN(c2nsc3ccccc23)CC1` the CC50 was 24.6 µM (African green monkey cells; 5 days).
`COC(=O)[C@H]1[C@@H](OC(=O)c2ccccc2)C[C@@H]2CC[C@H]1N2` gave a stability bias of 14.8% (rat whole blood; 500 nM, 4 months, -80 °C).
`Cc1nc(Nc2ccc(F)cc2)nc(N2CCc3ccccc3C2C)c1C` (centres unmarked) has a CC50 of 11.5 µM (African green monkey cells; 5 days).
`CN1CC[C@]23c4c5ccc(O)c4O[C@H]2[C@@H](O[C@@H]2O[C@H](C(=O)O)[C@@H](O)[C@H](O)[C@H]2O)C=C[C@H]3[C@H]1C5` has a stability bias of -1.26% (rat, whole blood; 500 nM, 4 months, -80 °C, long-term storage).
For `CN(C)CCCN1c2ccccc2Sc2ccccc21`, the CC50 was 25.7 µM (African green monkey cells; 5 days).
`CC(C)CC(=O)OC[C@H]1O[C@@](C#N)(c2ccc3c(N)ncnn23)[C@H](O)[C@@H]1O` has a half-life of 3.11 ± 0.0909 min (Cytochrome P450 2C8 (CYP2C8, Homo sapiens, UniProt P10632); metabolic stability; recombinant enzyme; 1 µM).
The stability bias of `CC(=O)Oc1ccc2c3c1O[C@H]1[C@@H](OC(C)=O)C=C[C@H]4[C@@H](C2)N(C)CC[C@@]341` is reported as -4.17% (rat, whole blood; 10 nM, 4 freeze-thaw cycles).
Under “incidence of Headache TRAE”, `CO[C@H]1C[C@@H]2CC[C@@H](C)[C@@](O)(O2)C(=O)C(=O)N2CCCC[C@H]2C(=O)O[C@H]([C@H](C)C[C@@H]2CC[C@@H](OC(=O)NCCOCCOCCOCCOCCOCCOCCOCCOCCC(=O)N3CCc4cc(Cn5nc(-c6ccc7oc(N)nc7c6)c6c(N)ncnc65)ccc4C3)[C@H](OC)C2)C[C@@H](O)[C@H](C)/C=C(\C)[C@@H](O)[C@@H](OC)C(=O)[C@H](C)C[C@H](C)/C=C/C=C/C=C/1C` is recorded as 0% (patients with advanced solid tumours; intravenous, 1.6 mg/3 mg weekly, any grade).
